Published values pooled from the literature.
Compare with care: the assays were run in different laboratories.

O=[N+]([O-])c1ccc(C2=[N+]([O-])c3ccccc3N3CCCN=C23)cc1 gave an MIC of ≤ 0.06 µg/mL (Porphyromonas sp.).
CC[C@@H](C)[C@@H](NC(=O)[C@@H](C)NC(=O)[C@@H](CCCCN)NC(=O)[C@@H](CC(C)C)NC(=O)[C@@H](C)NC(=O)[C@H](NC(=O)[C@@H](Cc1c[nH]cn1)NC(=O)[C@@H](CC(C)C)NC(=O)[C@H](NC(=O)[C@H](NC(=O)[C@@H](CCCCN)NC(=O)[C@@H](CCCCN)NC(=O)[C@@H](C)NC(=O)[C@@H](CO)NC(=O)[C@@H](CCCCN)NC(=O)[C@@H](Cc1ccccc1)NC(=O)[C@H](NC(=O)[C@@H](CCCCN)NC(=O)[C@@H](CC(C)C)NC(=O)[C@@H](Cc1ccccc1)NC(=O)[C@@H](CO)NC(=O)[C@@H](CCCCN)NC(=O)[C@@H](Cc1c[nH]c2ccccc12)NC(=O)[C@@H](CCCCN)NC(C)=O)[C@H](C)O)[C@H](C)O)C(C)C)[C@H](C)O)C(=O)N[C@H](CO)C(=O)N[C@H](CO)C(N)=O gave an MIC of 0.8 µM (Acinetobacter baumannii; 649, Mueller-Hinton broth; 24 h, 37 °C).
With CN(C)CCCNCCCNC(=O)[C@@H]1NC(=O)[C@@H]2Cc3ccc(cc3)Oc3cc4cc(c3O)-c3ccc5c(c[nH]c5c3)C[C@@H](NC(=O)C(N)c3ccc(O)cc3)C(=O)N[C@H](c3ccc(O)cc3)C(=O)N[C@H]4C(=O)N[C@@H](C(=O)N2C)c2ccc(cc2)Oc2cc1ccc2O (stereo partly shown) the MIC was 2 to 4 µg/mL (Enterococcus faecium; brain heart infusion medium).
CO[C@H]1/C=C/O[C@@]2(C)Oc3c(C)c(O)c4c(c3C2=O)C2=NC3(CCN(CC(C)C)CC3)NC2=C(NC(=O)/C(C)=C\C=C\[C@H](C)[C@H](O)[C@@H](C)[C@@H](O)[C@@H](C)[C@H](OC(=O)c2nccs2)[C@@H]1C)C4=O has an MIC of 0.017 µM (Mycobacteroides abscessus; ATCC 19977 arr deletion; 90% growth inhibition).
The MIC of N=C(N)NCCC[C@@H]1NC(=O)[C@H](CCCNC(=N)N)NC(=O)[C@H](CCCNC(=N)N)NC(=O)[C@H](CCCNC(=N)N)NC(=O)[C@H](Cc2c[nH]c3ccccc23)NC(=O)[C@H](CCCNC(=N)N)NC(=O)[C@H](CCCNC(=N)N)NC(=O)[C@@H](N)CCCCn2cc(nn2)C[C@@H](C(N)=O)NC1=O is reported as 62.5 µg/mL (Bacillus cereus; 24 h, 37 °C).
CN[C@@H]1[C@H](O)[C@H](NC)[C@H]2O[C@]3(O)[C@H](O[C@@H]2[C@H]1O)O[C@H](C)C[C@@]3(O)CNCCc1ccc(F)cc1 gave an MIC of 16 µg/mL (Mycobacteroides abscessus; ATCC 19977 ∆tap; 120 h).
For CCC(CC)C(=O)O[C@H]1[C@H](C)[C@H](O)[C@H](C)[C@@H](O)[C@@H](C)/C=C/C=C(/C)C(=O)NC2=C3NC4(CCN(CC(C)C)CC4)N=C3c3c(c(O)c(C)c4c3C(=O)[C@@](C)(O/C=C/[C@H](OC)[C@H]1C)O4)C2=O, the MIC was 0.049 µM (Mycobacteroides abscessus; ATCC 19977 arr deletion; 90% growth inhibition).
CN1C(=O)[C@@H]2NC(=O)[C@@H]3NC(=O)[C@@H](c4ccc(O)cc4)NC(=O)[C@H](NC(=O)C(NCc4cc(C(F)(F)F)cc(C(F)(F)F)c4)c4ccc(O)cc4)Cc4c[nH]c5cc(ccc45)-c4cc3cc(c4O)Oc3ccc(cc3)C[C@H]1C(=O)N[C@@H](C(=O)O)c1ccc(O)c(c1)Oc1ccc2cc1 (stereo partly shown) has an MIC of 8 to 16 µg/mL (Enterococcus faecium; brain heart infusion medium).
CN[C@@H]1[C@H](O)[C@H](NC)[C@H]2O[C@]3(O)[C@H](O[C@@H]2[C@H]1O)O[C@H](C)C[C@@]3(O)CNCc1ccc(F)cc1 has an MIC of 16 to 32 µg/mL (Mycobacteroides abscessus; ATCC 19977 ∆whiB7; 120 h).
CN[C@@H]1[C@H](O)[C@H](NC)[C@H]2O[C@]3(O)[C@H](O[C@@H]2[C@H]1O)O[C@H](C)C[C@]3(O)CNCc1ccc(OC(F)(F)F)cc1 has an MIC of > 200 µg/mL (Streptococcus pyogenes; ATCC 700294).

For quick reference, copied from above:
For CCC(CC)C(=O)O[C@H]1[C@H](C)[C@H](O)[C@H](C)[C@@H](O)[C@@H](C)/C=C/C=C(/C)C(=O)NC2=C3NC4(CCN(CC(C)C)CC4)N=C3c3c(c(O)c(C)c4c3C(=O)[C@@](C)(O/C=C/[C@H](OC)[C@H]1C)O4)C2=O, the MIC was 0.049 µM (Mycobacteroides abscessus; ATCC 19977 arr deletion; 90% growth inhibition).
